Assay results gathered from unrelated publications.
± marks the error that the study gave.
SLC10A1: Hepatic sodium/bile acid cotransporter (SLC10A1, Homo sapiens, UniProt Q14973)
Protein farnesyltransferase: Protein farnesyltransferase (Homo sapiens, UniProt P49354+P49356)
GPR17: Uracil nucleotide/cysteinyl leukotriene receptor (GPR17, Homo sapiens, UniProt Q13304)
CXCR4: C-X-C chemokine receptor type 4 (CXCR4, Homo sapiens, UniProt P61073)
Enoyl-[acyl-carrier-protein] reductase [NADPH] FabI: Enoyl-[acyl-carrier-protein] reductase [NADPH] FabI (Staphylococcus aureus, UniProt Q6GI75)
UGT1A9: UDP-glucuronosyltransferase 1A9 (UGT1A9, Homo sapiens, UniProt O60656)
chemosensory protein 1: chemosensory protein 1 (Chilo suppressalis, UniProt V9PY22)
T1: RNA aptamer original isolate 9-12; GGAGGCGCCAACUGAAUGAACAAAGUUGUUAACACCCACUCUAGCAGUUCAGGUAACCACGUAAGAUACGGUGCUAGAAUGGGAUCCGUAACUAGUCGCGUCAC
T2: RNA aptamer; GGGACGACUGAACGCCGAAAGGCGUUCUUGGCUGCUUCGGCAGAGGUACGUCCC
T3: RNA aptamer; CUUGGUUUAGGUAAUGAG
T4: RNA aptamer A45C/A49U/C71U; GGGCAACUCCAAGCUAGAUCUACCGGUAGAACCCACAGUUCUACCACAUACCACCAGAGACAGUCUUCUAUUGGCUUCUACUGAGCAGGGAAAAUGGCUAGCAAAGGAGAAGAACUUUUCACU

Substance	target	test	test system	conditions	how to read	endpoint	result
CCCCCC(C)O (stereo not drawn)	Chilo suppressalis CSP2	binding, competitive fluorescence displacement	–	30 µM, pH 7.4	–	fluorescence intensity	35.1 ± 3.39%
CCCN(CCC)CCc1cccc2c1CC(=O)N2	SLC10A1	inhibitor	HEK293 expressing NTCP	100 µM, 5 min, with: taurocholate 10 µM	reference: no compound	taurocholate uptake	133 ± 4%
CC1N=C2C(=O)N=C(N)N=C2NC1C (stereo not drawn)	Pteridine reductase 1 (Leishmania major, UniProt Q01782)	substrate inhibition, substrate, NADPH oxidation	–	pH 7.4, 25 °C, substrate made in situ, with: NADPH 50 µM	–	Ki	92200 ± 18900 nM
Nc1nc2c(ncn2[C@@H]2O[C@H](COP(=O)(O)OP(=O)(O)OP(=O)(O)O)[C@@H](O)[C@H]2O)c(=O)[nH]1	T1, RNA aptamer original isolate 9-12	ultrafiltration	–	apparent, with: GTP	–	Kd	300 nM
CSTL	Protein farnesyltransferase	enzyme activity, substrate, fluorimetric	peptide	3 µM, 30 min, with: 9 µM farnesyl diphosphate	reference: dansyl-GCVLS (set to 1.0)	relative fluorescence increase	0
zilucoplan	Complement C5 (Homo sapiens, UniProt P01031)	–	human whole blood	1 nM, 24 h, with: LPS 200 ng/mL	reference: LPS alone	C5a reduction	65.7%
N.N.Nc1nc(Cl)nc2c1ncn2[C@H]1C[C@H](OP(=O)(O)O)[C@@H](COP(=O)(O)O)O1	GPR17	frontal affinity chromatography-MS	immobilized on IAM column	1 µM, compound mixture	–	breakthrough time	6.38 min
c1cc(CN2CCCC2)ccc1CN1CCCC1	CXCR4	binding, competition binding	MDA-MB-231	semi-quantitative screen, with: biotinylated TN14003	–	lowest effective concentration	1000 nM
O=C(O)c1ccc(NC(c2ccc3cccnc3c2O)C2CCCCC2)cc1 (stereo not drawn)	CAAX prenyl protease 2 (Homo sapiens, UniProt Q9Y256)	enzyme activity, inhibitor	–	10 µM	–	remaining activity	< 40%
N.N.N.N.O=P(O)(O)OP(=O)(O)OP(=O)(O)OC[C@H]1O[C@@H](n2cnc3c(NC4CCCC4)ncnc32)[C@H](O)[C@@H]1O	GPR17	frontal affinity chromatography-MS	immobilized on IAM column	1 µM, compound mixture	–	breakthrough time	12.2 min
CC[C@H](C)[C@H](NC(=O)[C@H](Cc1c[nH]cn1)NC(=O)[C@H](CC(=O)O)NC(=O)[C@H](C)NC(=O)[C@H](C)NC(=O)[C@@H](NC(=O)[C@@H](NC(=O)[C@H](CC(C)C)NC(=O)[C@H](CCCNC(=N)N)NC(=O)[C@H](Cc1c[nH]cn1)NC(=O)[C@@H](NC(=O)[C@H](CCCNC(=N)N)NC(=O)[C@@H]1CCCN1C(=O)[C@@H](NC(=O)[C@H](CCC(N)=O)NC(=O)CN)C(C)C)[C@@H](C)O)[C@@H](C)CC)[C@@H](C)O)C(=O)N[C@@H](CS)C(=O)N[C@@H](CCC(N)=O)C(=O)N[C@H](C(=O)N[C@H](C(=O)N[C@H](C(=O)N[C@@H](CCC(N)=O)C(=O)N[C@@H](CC(=O)O)C(=O)N[C@@H](Cc1ccccc1)C(=O)N[C@@H](C)C(=O)N[C@@H](CCCNC(=N)N)C(=O)O)[C@@H](C)O)[C@@H](C)CC)[C@@H](C)CC	Nuclear receptor subfamily 1 group D member 1 (NR1D1, Homo sapiens, UniProt P20393)	NCoR peptide binding, competitor, TR-FRET	–	1 h, with: labelled NCoR 2040-2065 peptide	reference: mutant over wild-type peptide	IC50 fold change	2.7
CTLL	Protein farnesyltransferase	enzyme activity, substrate, fluorimetric	peptide	3 µM, 30 min, with: 9 µM farnesyl diphosphate	reference: dansyl-GCVLS (set to 1.0)	relative fluorescence increase	0
Oc1ccccc1Oc1ccccc1	Enoyl-[acyl-carrier-protein] reductase [NADPH] FabI	enzyme activity, inhibitor, progress curve kinetics, refers to: NADPH	–	–	–	Ki	18.9 ± 1.05 nM
CC1=C(/C=C/C(C)=C/C=C/C(C)=C/C=C/C=C(C)/C=C/C=C(C)/C=C/C2=C(C)C[C@H](O)CC2(C)C)C(C)(C)C[C@H](O)C1	Albumin (ALB, Homo sapiens, UniProt P02768)	surface plasmon resonance	–	25 °C	–	Kd	2000 ± 30 nM
insulin icodec	human serum albumin	radioligand binding	HSA-agarose	–	reference: compound over insulin detemir	albumin binding affinity ratio	9.5 ± 0.6 fold
O=C(O)[C@H]1O[C@@H](O[C@H]2c3cc4ccc5cccc6c7ccccc7c(c3C=C[C@@H]2O)c4c56)[C@H](O)[C@@H](O)[C@@H]1O (relative stereo)	UDP-glucuronosyltransferase 1A8 (UGT1A8, Homo sapiens, UniProt Q9HAW9)	glucuronidation, substrate	UGT-expressing HEK293 homogenate	normalized to UGT expression	–	kcat	0.0025 ± 0.000333 s⁻¹
O=C(CCn1c2ccccc2c2ccccc21)N(c1ccc(F)cc1)c1ccc(F)cc1	Proteasome subunit alpha type-2/Proteasome subunit alpha type-6, 20S proteasome (Homo sapiens, UniProt P25787+P60900)	proteolysis, activator, fluorogenic peptide	purified 20S proteasome	up to 30 µM, with: Suc-LLVY-AMC, Z-LLE-AMC, Boc-LRR-AMC	reference: vehicle	maximum fold increase	5.8
CN(C)c1ccc2c(-c3ccc(C(=O)O)cc3C(=O)[O-])c3ccc(=[N+](C)C)cc-3oc2c1	T2, RNA aptamer	fluorescence quenching titration	–	pH 7.5, 25 °C, NaCl 15 mM, no Mg2+	–	Kd	233 nM
C[N+](C)(C)CCOC(N)=O	Gi/o proteins	[3H]GDP binding SPA	CHO cell membranes	10 µM, with: [3H]GDP 500 nM	reference: control	GDP dissociation rate increase	6.3 to 6.5 fold
CQNL	Protein farnesyltransferase	enzyme activity, substrate, fluorimetric	peptide	3 µM, 30 min, with: 9 µM farnesyl diphosphate	reference: dansyl-GCVLS (set to 1.0)	relative fluorescence increase	0
CN(Cc1ccc(CN(C)Cc2ccccc2F)cc1)Cc1ccccc1F	CXCR4	binding, competition binding	MDA-MB-231	semi-quantitative screen, with: biotinylated TN14003	–	lowest effective concentration	> 1000 nM

Substance	target	test	test system	conditions	how to read	endpoint	result
CC(C)=CCC/C(C)=C/CC/C(C)=C/CC/C(C)=C/CO	Alcohol dehydrogenase 1 (Adh1, Rattus norvegicus, UniProt P06757)	substrate	–	50 µM, pH 7.4, with: 2 mM NAD+	–	dehydrogenase activity	0.45 U/mg
Tumor necrosis factor alpha	P-glycoprotein (Bos taurus, UniProt A0A3Q1MB23)	apical-to-basolateral transport	BME-UV monolayers	200 ng/mL, 72 h, with: [3H]-digoxin 0.05 µM	reference: unexposed monolayers	decrease in digoxin flux	43 ± 3%
CNc1nc(Cl)cc2c1ncn2[C@@H]1O[C@H](COP(=O)(O)OP(=O)(O)OP(=O)(O)O)[C@@H](O)[C@H]1O.N.N.N.N	GPR17	frontal affinity chromatography-MS	immobilized on IAM column	1 µM, compound mixture	–	breakthrough time	11.1 min
CCCCCCO	Chilo suppressalis CSP2	binding, competitive fluorescence displacement	–	30 µM, pH 7.4	–	fluorescence intensity	59.3 ± 2.24%
O=C(/C=C/c1ccccc1)c1ccccc1O	UGT1A9	substrate	–	pH 7.4, 37 °C	–	Vmax	1010 pmol/mg/min
CC(=O)N1CCN(c2ccc(OCC3COC(Cn4ccnc4)(c4ccc(Cl)cc4Cl)O3)cc2)CC1 (stereo not drawn)	SLC10A1	inhibitor	HEK293 expressing NTCP	100 µM, 5 min, with: taurocholate 10 µM	reference: no compound	taurocholate uptake	59.1 ± 3%
CCCCCCCCCCCC=O	chemosensory protein 1	binding, competitive ligand, fluorescence competitive binding	–	highest concentration tested, pH 7.4, protein 2 µM, with: 1-NPN 2 µM	reference: no ligand	remaining 1-NPN fluorescence	37.4 ± 2.76%
peginesatide	EPOR extracellular domain-Fc fusion (human)	binding, competitor	–	with: rHu-EPO	reference: compound-bound EPOR over rHu-EPO-bound EPOR	fold shift in IC50	12.4 fold
CC[C@H](C)C(=O)O[C@H]1C[C@@H](C)C=C2C=C[C@H](C)[C@H](CC[C@@H]3C[C@@H](O)CC(=O)O3)[C@H]21	SLC10A1	inhibitor	HEK293 expressing NTCP	100 µM, 5 min, with: taurocholate 10 µM	reference: no compound	taurocholate uptake	74.7 ± 3.2%
CGCL	Protein farnesyltransferase	enzyme activity, substrate, fluorimetric	peptide	3 µM, 30 min, with: 9 µM farnesyl diphosphate	reference: dansyl-GCVLS (set to 1.0)	relative fluorescence increase	0
COc1ccc(-c2coc3cc(O)cc(O)c3c2=O)cc1	UGT1A9	substrate	–	pH 7.4, 37 °C	–	Vmax	379 pmol/mg/min
NC[C@H]1O[C@H](O[C@H]2[C@H](O)[C@@H](O[C@H]3O[C@H](CO)[C@@H](O)[C@H](N)[C@H]3O)[C@H](N)C[C@@H]2N)[C@H](N)C[C@@H]1O	T3, RNA aptamer	square wave voltammetry	–	apparent, on gold electrode, electrochemical aptamer sensor	–	Kd	45 nM
CSVL	Protein farnesyltransferase	enzyme activity, substrate, fluorimetric	peptide	3 µM, 30 min, with: 9 µM farnesyl diphosphate	reference: dansyl-GCVLS (set to 1.0)	relative fluorescence increase	0
O=C1NC(=O)C(c2ccccc2)(c2ccccc2)N1	Monocarboxylate transporter 8 (SLC16A2, Rattus norvegicus, UniProt Q8K1P8)	substrate, Xenopus oocytes	–	9.09 µM, with: inhibitor 400 µM	reference: water-injected oocytes	uptake inhibition	no effect
NC[C@@H]1O[C@H](O[C@H]2[C@@H](O)[C@H](O[C@@H]3[C@@H](O)[C@H](N)C[C@H](N)[C@H]3O[C@H]3O[C@H](CN)[C@@H](O)[C@H](O)[C@H]3N)O[C@@H]2CO)[C@H](N)[C@@H](O)[C@@H]1O	T4, RNA aptamer A45C/A49U/C71U	ITC	–	25 °C, KCl 250 mM	–	Kd	> 10000 nM
O=C(NCc1ccc(CNS(=O)(=O)c2ccc(CN3CCCC3)cc2)cc1)c1ccc(F)cc1	CXCR4	binding, competitor, rhodamine fluorescence	MDA-MB-231	semi-quantitative screen, with: biotinylated TN14003	–	lowest effective concentration	1 nM
CCC/C=C/C=O	chemosensory protein 1	binding, competitive ligand, fluorescence competitive binding	–	highest concentration tested, pH 7.4, protein 2 µM, with: 1-NPN 2 µM	reference: no ligand	remaining 1-NPN fluorescence	56.7 ± 0.97%
Nc1nc(NC2CC2)c2ncn([C@H]3C=C[C@@H](CO)C3)c2n1	SLC10A1	inhibitor	HEK293 expressing NTCP	100 µM, 5 min, with: taurocholate 10 µM	reference: no compound	taurocholate uptake	94.9 ± 4.4%
Cc1c(NC(=O)c2cccnc2)c(=O)n(-c2ccccc2)n1C	E3 ubiquitin-protein ligase TRIM63 (TRIM63, Homo sapiens, UniProt Q969Q1)	enzyme activity, inhibitor, in vitro ubiquitination, refers to: dystrophin	–	–	–	poly-ubiquitin chain formation	inhibited
CCc1nn(CCCN2CCN(c3cccc(Cl)c3)CC2)c(=O)n1CCOc1ccccc1	SLC10A1	inhibitor	HEK293 expressing NTCP	100 µM, 5 min, with: taurocholate 10 µM	reference: no compound	taurocholate uptake	60.8 ± 1.9%
Oc1cc(Cl)ccc1Oc1ccccc1	Enoyl-[acyl-carrier-protein] reductase [NADPH] FabI	enzyme activity, inhibitor, progress curve kinetics, refers to: NADPH	–	–	–	Ki	0.12 ± 0.01 nM

Some of these lines once more:
Substance	target	test	test system	conditions	how to read	endpoint	result
O=C(/C=C/c1ccccc1)c1ccccc1O	UGT1A9	substrate	–	pH 7.4, 37 °C	–	Vmax	1010 pmol/mg/min
CC(=O)N1CCN(c2ccc(OCC3COC(Cn4ccnc4)(c4ccc(Cl)cc4Cl)O3)cc2)CC1 (stereo not drawn)	SLC10A1	inhibitor	HEK293 expressing NTCP	100 µM, 5 min, with: taurocholate 10 µM	reference: no compound	taurocholate uptake	59.1 ± 3%
CCCCCCCCCCCC=O	chemosensory protein 1	binding, competitive ligand, fluorescence competitive binding	–	highest concentration tested, pH 7.4, protein 2 µM, with: 1-NPN 2 µM	reference: no ligand	remaining 1-NPN fluorescence	37.4 ± 2.76%
peginesatide	EPOR extracellular domain-Fc fusion (human)	binding, competitor	–	with: rHu-EPO	reference: compound-bound EPOR over rHu-EPO-bound EPOR	fold shift in IC50	12.4 fold
CC[C@H](C)C(=O)O[C@H]1C[C@@H](C)C=C2C=C[C@H](C)[C@H](CC[C@@H]3C[C@@H](O)CC(=O)O3)[C@H]21	SLC10A1	inhibitor	HEK293 expressing NTCP	100 µM, 5 min, with: taurocholate 10 µM	reference: no compound	taurocholate uptake	74.7 ± 3.2%
